# Measurements from different studies.
# Every numbered part comes from another study and shows a few of its results, in no order.

# Sample 1 — technique: RNA Bind-n-Seq; form: RNA; sample: in vitro; tested at: 200 nM; notes: whole 134-nt RNA, ends assumed; added: 150 mM KCl; baseline: input library; direction: higher = stronger binding
# Target: Fragile X messenger ribonucleoprotein 1, C-terminal low-complexity region (Fmr1, Mus musculus, UniProt P35922)
# All sequences stand within: GGGAGUUCUACAGUCCGACGAUC … UGGAAUUCUCGGGUGUCAAGG
Strand,log2 enrichment
UGGCCCUGGUGGCAUGCGGGGAGGAAGAGGUGGCCUCAUGGAUCGUGGUGGUCCCGGUGGAAUGUUCAGAGGUAGCCGUGGUGGAGACAG,0.0397
ACCAUGCAAAUGGGCAUCUUUGGGAAGUGGGGCAAGGGGGGGAUAGGGAGGGGGGUAACACUUUGGGAACAGGUGGUCCCAGGUCGUUUC,0.598
AGUCCUGUGCUACACAUCGUAUGUACCGAAUCGGGAGGGUUUUUGGGUUUUUUUGGGAAAGUAUUAUGUUACGCCGUUCGGAUCUGCACU,0.221
CCUGUGCUACACAUCGUAUGUACCGAAUCGGGGAAAAAGGGGAAAAAGGGGAAAAAGGGGAAAGUAUUAUGUUACGCCGUUCGGAUCUGC,0.156
AGUCCUGUGCUACACAUCGUAUGUACCGAAUCGGGUUUUUGGGAAAAAGGGUUUGGGAAAGUAUUAUGUUACGCCGUUCGGAUCUGCACU,0.0498
UGCCAUAAGCGGCACCGGCACUGCCCGGUUGUCGUGUCCGAGGCCACCAUCGUGGGCGUCCGCAAGACCGGGCAGAUCUGGCCCAACGAU,-1.5
CUCAAGUCCUGUGCUACACAUCGUAUGUACCGAAUCGGGUGGGUGGGGUGGGGAAAGUAUUAUGUUACGCCGUUCGGAUCUGCACUUCCA,0.608
UGGGAGUUGGAUUUUGUUUAUUUUUUUAGCUCAUUUCCAGGGGUGGGAAUUUUUUUUUAAUAUGUGUCAUGAAUAAAGUUGUUUUUGAAA,-0.723
CACAGACAACACGCACCCACACAGACACAGAGGGAAGGGGUUGGGAUGGGGACAGGGUGCACAGCAGGGCGGGGUAGGACCCCACCCCCU,1.36
UCCCUAUUCCAGUCAUACACGUGGACCUAACUGCACCAGUAGCUUUUCUGAGAAUACUUGCUGAAAAGGAAGUUUUCUGGAAUGGGUAAG,-0.206
ACCAUGCAGGUGGGCAUCUUUGGGAAGUGGGGCGAGGGGGGGAUAGGGAGGGGGGUAACACUUUGGGAACAGGUGGUCCCAGGUCGUUUC,0.932
GCAGGAAGUAAAAACAAAUGGAAAUGCUUCGGAUAGUGGCAGGGGUGGGGGUUGCUAACGAAAGGGUGGGAUGGGAGUGGGUAAAGAGUU,0.24
CAAGUCCUGUGCUACACAUCGUAUGUACCGAAUCGGGGCCCGGCCCGGGCCCGGGAAAGUAUUAUGUUACGCCGUUCGGAUCUGCACUUC,-0.801
CUGUGCUACACAUCGUAUGUACCGAAUCGGGGUUUUUUUGGUUUUUUUGGGGUUUUUUUGGAAAGUAUUAUGUUACGCCGUUCGGAUCUG,-0.757

# Sample 2 — technique: RNA Bind-n-Seq; form: RNA; sample: in vitro; tested at: 365 nM; baseline: no-protein control; direction: higher = stronger binding
# Target: RNA binding protein fox-1 homolog 2, RRM domain, GST-SBP tag (RBFOX2, Homo sapiens, UniProt O43251-10, residues 100-194)
# Notes: natural RNA segment, single round, ends assumed
# All sequences stand within: GGGAGUUCUACAGUCCGACGAUC … UGGAAUUCUCGGGUGCCAA
# Residues (chain): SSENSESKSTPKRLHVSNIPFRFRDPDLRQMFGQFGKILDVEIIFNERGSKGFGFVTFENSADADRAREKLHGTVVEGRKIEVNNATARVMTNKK
Strand,RBNS enrichment (R)
UCUUCUUAUCAUUCAGACGUCCCUCCAGAUGCCCAGGGUGAGUGUAACAUUUACCCACAACCUGGCUCGGCACUGGAUGAAAUUCUACAAGGUGAGUGGAGUGUAAAACU,0.246
CAGCUGGAAGGACACAGGUUGCCGGAGUCCCUGACACAGCUCCAGCAUAUCUGUGACCAUCUGCUCCUGAUAACCACUGUCCAGCAUCUCUUCGGGCCAGCCCGGUGCCA,0.365
CCUUUUUAUGUAUGGGUUAGAAACUCUUUUUUCCCUAGUCAGAGCAGCCAGGCUGUACAAAAUCUGUGCUCUCUCGGUUCCCCAUGCCUCUAGAAGGCCGUUAAAACCAA,0.244
UUUUUGCAAUAAUGCAGUAUGGUACAUUUUUCAAAUUUGAAUAAAGAAUACUUGAACUUGUUGUUGAUCACUUGUCCUAGAACAUCACCGACUGAUUCUAGAAAGACUAU,0.282
UAAUGAACGCACCUCGUUAAGUAUUUAUACUUGUAACUAACCCCAGGCAGGGACCUCAGCUUUGUUAGGAAUAAGGCACAAGAAGUAUUUUCUGUAGCUAUUGUUUCCUC,0.398
GGUUCACAGUGCCUGAAUUACACCUGCUCCGAAAACUAGCUUUGUAUUUCUUAUGACUUUGCAUAAGAACUGUUCAUCUUUGGAUCUUGAGCACCUUACAGAUAAAACUU,0.275
ACGGAUAGGCUCAGUUAGUCAGGAAUGUUUACACCUCAGUUAACUUCAGUGAUUGACUUAAAGACUGGGAGGUAUAUUGCCUGUGAGAGAAAUGUCUUUUCAUGAAUCCU,0.487
AGUCUGGACCCUUUUGUCACAGUACAGCUCUUGUCUUUACCAACUGCCUGAAGAGGCCAUAUGCUGGCAUUUUGCACAACUUUUUGGUUGUUUAGAUCCUACAGAUGACC,0.348
GGCAGCAGGACCCCAGGCUACAUAUGGAAGGUAGAGAUGUGGGGGUCCUGUAUCCUGGAGUAUUAUGUCUCCCCACCUUCUGCAGUUUUCUCUGAACAUGUAUGUUGCCC,0.892
CCAGAAUACACUGGACACCAAGGCCAAGGACGUUCACGUUCUGCCCUCGCUGGGUCCAGCUGACUCUAGCGUCUGCACAGCCUUGUGUGACUCGUGGUGACCUAACCUGA,0.214
CCAGCUGUCCCUCAGGCUGGGGGAAAACAGGUGUUUGAUUUGUCACCGUUGGAGCUUGGAUAUGUGCGUGGCAUGUGUGUGUGUGUGUGAGAGUGUGAAUGCACAGGUGG,9.15
UAAGUUUGUGAGGUACAAGAAUAUGUUUUCAUGAAAGUAACAUUGUUUAUCUAGCAAACGUGACAAUAUUUUUAUGUAUAUAAUGAUUCUAAUCUAAGUUAAUUAAUGUG,0.62

# Sample 3 — technique: RNAcompete; form: RNA; sample: in vitro; tested at: 20 nM; notes: 7-mer, probes averaged, single round; baseline: mean of 7-mers; direction: higher = stronger binding
# Target: PABPC1L2, full length, GST fusion (mouse, UniProt A0ABA7IW68)
# Target sequence (chain): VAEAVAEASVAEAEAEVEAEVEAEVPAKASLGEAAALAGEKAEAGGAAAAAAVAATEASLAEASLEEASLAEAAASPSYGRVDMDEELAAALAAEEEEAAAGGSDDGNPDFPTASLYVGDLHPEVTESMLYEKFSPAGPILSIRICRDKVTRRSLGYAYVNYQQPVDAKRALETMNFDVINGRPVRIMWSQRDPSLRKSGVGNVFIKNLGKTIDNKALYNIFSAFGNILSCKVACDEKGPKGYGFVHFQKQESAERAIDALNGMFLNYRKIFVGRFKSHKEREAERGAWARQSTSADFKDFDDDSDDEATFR
Strand,7-mer Z-score
CACGCAA,0.0424
GCGAUGC,-0.122
GGGGGCA,0.717
AAUUUAA,0.416
GGUGUUC,-0.318
CCGAUUU,-0.146
GCCUACG,-0.271
CACUCUG,-0.329
CAUCAUC,-0.298
CAAGCUG,-0.128
GCUGCGC,-0.316
CGGAAAU,0.182
CCUGUUC,-0.438
ACCUUCU,-0.273
ACGCAAG,-0.103
UGAUCUC,-0.396
GUCGGGA,0.157
CUAUAGU,-0.403
AUCACUG,-0.0699
UUCCGGA,-0.315

# Sample 4 — technique: RNA Bind-n-Seq; form: RNA; sample: in vitro; tested at: 100 nM; baseline: input RNA pool; direction: higher = stronger binding
# Target: RING finger protein unkempt homolog, zinc fingers 1-6, SBP tag (UNK, Homo sapiens, UniProt Q9C0B0, residues 30-357)
# Chain of UniProt Q9C0B0 (30-357, looked up): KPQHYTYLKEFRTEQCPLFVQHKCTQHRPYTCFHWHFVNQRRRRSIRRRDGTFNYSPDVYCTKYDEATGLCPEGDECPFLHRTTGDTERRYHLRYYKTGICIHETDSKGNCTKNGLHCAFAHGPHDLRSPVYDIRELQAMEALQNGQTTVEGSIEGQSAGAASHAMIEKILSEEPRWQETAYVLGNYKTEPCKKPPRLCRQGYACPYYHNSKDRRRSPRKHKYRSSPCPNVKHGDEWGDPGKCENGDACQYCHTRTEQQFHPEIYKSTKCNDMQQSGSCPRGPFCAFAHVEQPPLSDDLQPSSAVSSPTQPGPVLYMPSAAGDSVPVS
# Notes: RNA with constant flanks, vertebrate orthologous sites, ends assumed
# All sequences stand within: GGGAGUUCUACAGUCCGACGAUC … CAACAGAGGAUUGAGCAUCA
Strand,bound/input enrichment [ratio]
UUGGGAACAGCUCUCCAAAUAGGAGUAGUAGUAAAAAAAAUAAGCAAAAUGAUAUGUGUAUAGAAAAAACAGAAGUUAAAUCAUGUAAAGUAAAUGCUGCCAACCUUCCCGGCCCUAAAG,0.865
UAAUGCAAUGGUUGAAGGCUCUGAGCUCAAAAAGUUUCGGUCCAACUCUAGAGUAUAUCACCGGUACUUUCUUUUAGAUGCAGAUAUGCAGUCCCUGCGUUGGGAACCUUCAAAGAAGGA,0.429
GAACUAAAGGAGUUAGCAUCUUUAUUUUUGUAUCAAAGAUAAAGGUUAUUUUGAAAUUAUUAAGAUUUUUACACAACUCUGAAAUCUGUUGCUUUUGUAAACAAGUUGUUUAAUCUUAGG,0.474
CAUCGGGUCACUCCUAUUACCAAGUAGCUGGAAUUGUGAAGGUCGGAGUAGUUGGAGUUUUAGCUUUGAUUCCUGAUUUGUUUGUAUUACUAUCCCUGUGUAUAAAUUAUUGACCAUGUU,0.717
AUUCAAACCUGUGGUACCAUGGCCUCAUGUUGAAGGAAUAGAAGUGGACUUAGAGUCUAUUAGAAGAAAAAACAAGGACAAAAAUGAACAAGAGCGUCAUGCUGGAGGAGAUAACCAGAA,0.706
CUGUUGUGUGAAAUAUGUCUACCAAGAGAAGUAUCACACCAUAAACAUUGUCAAAUAAUUUAGCUACAGUCUUAGAUACCAAAUUAUAUGUCAGGCAUUUAAAGUGAAUUUGAGAUGAAA,1.17
AUUUGGUUAAUUUUGAUCUCCUCUUCCUCUUCCUUGCCCACCCAUACAAUUUUUUUUUAUGCAUAUUUAGUAACACUAGCUCUCCAGGUUCAAUUUAGGAAAAUGAUUCUCAAGAACAAA,2.02
CCUACAAUAAUGAAAAUCUACAGAAAAUUUUUUAUUUUUCAUUUUUCCCUUAGGCAUAUUGAGUCUAUUUCCCCCCAGGCAGAUCAUUCUGAGUGUGCGAGUGUGUGUGCACAUGUUAAA,0.374
GUGACUUUGGAUGCCCGCAGAUACAGGCUGCGUUGAGUGCUAGGUUCCGUGUUUGCCAAGUUUGUUCUCUCUUUCCGCACCUGAGGCGUCUACCGCAAACAUGCUCCGCCAGAUCAUCAG,0.278
AGUUUAGAUAAUCUUUUUAUUUUUUUUUCUUUUCCCUCAAUCCUUUUUUAUUUUUAAAACUAGUUCUUUUGUAAUGUGGUGUUCAAAACAGAAUUGAAAACUGGCACCCCAUCUCUUUGA,7.04
ACAUGCUCUCUGCAGGAAGCUGCUAGCUGCUUAGCAUCCAUUUGAUUAGUGAUAUUGAGAAGAAAGGUUUGUGGUGGUGUUUUUUUUUUUUUUUUAAGAUAUUGAGACUUAAUUAACUAA,2.06

# For quick reference, copied from above (sample 1):
Strand,log2 enrichment
UGCCAUAAGCGGCACCGGCACUGCCCGGUUGUCGUGUCCGAGGCCACCAUCGUGGGCGUCCGCAAGACCGGGCAGAUCUGGCCCAACGAU,-1.5
CUCAAGUCCUGUGCUACACAUCGUAUGUACCGAAUCGGGUGGGUGGGGUGGGGAAAGUAUUAUGUUACGCCGUUCGGAUCUGCACUUCCA,0.608
UGGGAGUUGGAUUUUGUUUAUUUUUUUAGCUCAUUUCCAGGGGUGGGAAUUUUUUUUUAAUAUGUGUCAUGAAUAAAGUUGUUUUUGAAA,-0.723
CACAGACAACACGCACCCACACAGACACAGAGGGAAGGGGUUGGGAUGGGGACAGGGUGCACAGCAGGGCGGGGUAGGACCCCACCCCCU,1.36
UCCCUAUUCCAGUCAUACACGUGGACCUAACUGCACCAGUAGCUUUUCUGAGAAUACUUGCUGAAAAGGAAGUUUUCUGGAAUGGGUAAG,-0.206
ACCAUGCAGGUGGGCAUCUUUGGGAAGUGGGGCGAGGGGGGGAUAGGGAGGGGGGUAACACUUUGGGAACAGGUGGUCCCAGGUCGUUUC,0.932
GCAGGAAGUAAAAACAAAUGGAAAUGCUUCGGAUAGUGGCAGGGGUGGGGGUUGCUAACGAAAGGGUGGGAUGGGAGUGGGUAAAGAGUU,0.24
